Published values pooled from the literature.
Each numbered part is a random draw from the data of one study; scales do not carry over between parts.
UniProt Q9Y616, sequence (whole entry, looked up): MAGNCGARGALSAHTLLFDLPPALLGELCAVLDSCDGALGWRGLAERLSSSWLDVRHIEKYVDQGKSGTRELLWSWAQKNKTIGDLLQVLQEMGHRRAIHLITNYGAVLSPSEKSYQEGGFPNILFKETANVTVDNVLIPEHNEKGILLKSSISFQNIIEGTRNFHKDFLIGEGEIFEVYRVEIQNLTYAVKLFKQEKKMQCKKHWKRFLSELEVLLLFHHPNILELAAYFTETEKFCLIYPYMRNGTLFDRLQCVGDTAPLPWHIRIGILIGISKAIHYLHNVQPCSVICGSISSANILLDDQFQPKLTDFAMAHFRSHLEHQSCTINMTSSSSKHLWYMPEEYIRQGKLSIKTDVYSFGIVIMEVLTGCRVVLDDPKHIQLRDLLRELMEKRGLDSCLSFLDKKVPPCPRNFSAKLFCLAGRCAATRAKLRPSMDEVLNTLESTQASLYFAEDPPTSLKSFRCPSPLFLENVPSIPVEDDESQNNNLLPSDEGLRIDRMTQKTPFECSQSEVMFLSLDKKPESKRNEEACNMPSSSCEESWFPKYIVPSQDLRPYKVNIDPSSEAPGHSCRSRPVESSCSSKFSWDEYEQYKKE
UniProt Q59H18, sequence (whole entry, looked up): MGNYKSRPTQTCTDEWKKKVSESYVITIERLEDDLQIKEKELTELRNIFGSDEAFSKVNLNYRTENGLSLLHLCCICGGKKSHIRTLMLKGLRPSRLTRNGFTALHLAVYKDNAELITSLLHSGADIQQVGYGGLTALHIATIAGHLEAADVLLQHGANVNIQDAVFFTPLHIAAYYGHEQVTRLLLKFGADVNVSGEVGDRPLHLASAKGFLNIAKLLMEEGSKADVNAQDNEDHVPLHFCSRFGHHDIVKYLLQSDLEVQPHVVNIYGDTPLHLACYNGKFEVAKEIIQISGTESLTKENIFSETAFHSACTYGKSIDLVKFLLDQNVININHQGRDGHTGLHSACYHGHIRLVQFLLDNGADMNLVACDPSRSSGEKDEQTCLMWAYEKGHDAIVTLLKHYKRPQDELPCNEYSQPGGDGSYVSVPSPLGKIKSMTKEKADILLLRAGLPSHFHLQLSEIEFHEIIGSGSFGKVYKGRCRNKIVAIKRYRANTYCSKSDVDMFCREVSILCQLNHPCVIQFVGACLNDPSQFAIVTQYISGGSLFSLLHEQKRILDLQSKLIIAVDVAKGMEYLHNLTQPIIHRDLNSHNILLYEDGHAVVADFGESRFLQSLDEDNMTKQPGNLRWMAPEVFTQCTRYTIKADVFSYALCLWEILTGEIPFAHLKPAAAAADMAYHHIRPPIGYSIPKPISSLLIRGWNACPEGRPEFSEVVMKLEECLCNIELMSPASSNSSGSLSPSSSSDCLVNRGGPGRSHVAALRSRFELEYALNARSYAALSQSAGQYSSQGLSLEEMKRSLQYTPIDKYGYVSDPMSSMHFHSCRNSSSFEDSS
UniProt P27037, sequence (whole entry, looked up): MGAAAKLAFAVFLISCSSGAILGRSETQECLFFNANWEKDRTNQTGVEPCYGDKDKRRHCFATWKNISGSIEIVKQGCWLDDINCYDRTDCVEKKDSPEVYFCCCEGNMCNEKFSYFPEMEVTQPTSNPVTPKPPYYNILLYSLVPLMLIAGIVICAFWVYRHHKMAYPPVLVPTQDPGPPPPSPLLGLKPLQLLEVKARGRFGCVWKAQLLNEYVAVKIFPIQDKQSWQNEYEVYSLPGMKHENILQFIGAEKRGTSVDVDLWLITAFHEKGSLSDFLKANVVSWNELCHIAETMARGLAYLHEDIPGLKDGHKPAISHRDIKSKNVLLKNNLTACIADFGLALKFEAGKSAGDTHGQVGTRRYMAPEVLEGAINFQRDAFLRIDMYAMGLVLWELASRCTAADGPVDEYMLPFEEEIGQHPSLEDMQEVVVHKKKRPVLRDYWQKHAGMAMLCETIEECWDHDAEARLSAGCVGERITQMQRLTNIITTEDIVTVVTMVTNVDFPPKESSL
UniProt Q86Y07, sequence (whole entry, looked up): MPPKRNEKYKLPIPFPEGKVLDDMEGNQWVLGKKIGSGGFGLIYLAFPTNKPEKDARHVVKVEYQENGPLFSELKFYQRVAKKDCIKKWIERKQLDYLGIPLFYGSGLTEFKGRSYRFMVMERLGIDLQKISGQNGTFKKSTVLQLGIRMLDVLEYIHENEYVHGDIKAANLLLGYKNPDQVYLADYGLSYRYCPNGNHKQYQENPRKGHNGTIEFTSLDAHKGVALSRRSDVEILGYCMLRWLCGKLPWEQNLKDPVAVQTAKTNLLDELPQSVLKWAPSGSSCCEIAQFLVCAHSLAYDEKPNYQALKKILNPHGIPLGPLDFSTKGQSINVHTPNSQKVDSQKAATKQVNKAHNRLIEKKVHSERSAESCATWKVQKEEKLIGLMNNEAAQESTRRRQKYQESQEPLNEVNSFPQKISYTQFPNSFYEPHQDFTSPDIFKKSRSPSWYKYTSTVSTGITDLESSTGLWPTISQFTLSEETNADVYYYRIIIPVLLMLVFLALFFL
UniProt Q8NEV4, sequence (whole entry, looked up): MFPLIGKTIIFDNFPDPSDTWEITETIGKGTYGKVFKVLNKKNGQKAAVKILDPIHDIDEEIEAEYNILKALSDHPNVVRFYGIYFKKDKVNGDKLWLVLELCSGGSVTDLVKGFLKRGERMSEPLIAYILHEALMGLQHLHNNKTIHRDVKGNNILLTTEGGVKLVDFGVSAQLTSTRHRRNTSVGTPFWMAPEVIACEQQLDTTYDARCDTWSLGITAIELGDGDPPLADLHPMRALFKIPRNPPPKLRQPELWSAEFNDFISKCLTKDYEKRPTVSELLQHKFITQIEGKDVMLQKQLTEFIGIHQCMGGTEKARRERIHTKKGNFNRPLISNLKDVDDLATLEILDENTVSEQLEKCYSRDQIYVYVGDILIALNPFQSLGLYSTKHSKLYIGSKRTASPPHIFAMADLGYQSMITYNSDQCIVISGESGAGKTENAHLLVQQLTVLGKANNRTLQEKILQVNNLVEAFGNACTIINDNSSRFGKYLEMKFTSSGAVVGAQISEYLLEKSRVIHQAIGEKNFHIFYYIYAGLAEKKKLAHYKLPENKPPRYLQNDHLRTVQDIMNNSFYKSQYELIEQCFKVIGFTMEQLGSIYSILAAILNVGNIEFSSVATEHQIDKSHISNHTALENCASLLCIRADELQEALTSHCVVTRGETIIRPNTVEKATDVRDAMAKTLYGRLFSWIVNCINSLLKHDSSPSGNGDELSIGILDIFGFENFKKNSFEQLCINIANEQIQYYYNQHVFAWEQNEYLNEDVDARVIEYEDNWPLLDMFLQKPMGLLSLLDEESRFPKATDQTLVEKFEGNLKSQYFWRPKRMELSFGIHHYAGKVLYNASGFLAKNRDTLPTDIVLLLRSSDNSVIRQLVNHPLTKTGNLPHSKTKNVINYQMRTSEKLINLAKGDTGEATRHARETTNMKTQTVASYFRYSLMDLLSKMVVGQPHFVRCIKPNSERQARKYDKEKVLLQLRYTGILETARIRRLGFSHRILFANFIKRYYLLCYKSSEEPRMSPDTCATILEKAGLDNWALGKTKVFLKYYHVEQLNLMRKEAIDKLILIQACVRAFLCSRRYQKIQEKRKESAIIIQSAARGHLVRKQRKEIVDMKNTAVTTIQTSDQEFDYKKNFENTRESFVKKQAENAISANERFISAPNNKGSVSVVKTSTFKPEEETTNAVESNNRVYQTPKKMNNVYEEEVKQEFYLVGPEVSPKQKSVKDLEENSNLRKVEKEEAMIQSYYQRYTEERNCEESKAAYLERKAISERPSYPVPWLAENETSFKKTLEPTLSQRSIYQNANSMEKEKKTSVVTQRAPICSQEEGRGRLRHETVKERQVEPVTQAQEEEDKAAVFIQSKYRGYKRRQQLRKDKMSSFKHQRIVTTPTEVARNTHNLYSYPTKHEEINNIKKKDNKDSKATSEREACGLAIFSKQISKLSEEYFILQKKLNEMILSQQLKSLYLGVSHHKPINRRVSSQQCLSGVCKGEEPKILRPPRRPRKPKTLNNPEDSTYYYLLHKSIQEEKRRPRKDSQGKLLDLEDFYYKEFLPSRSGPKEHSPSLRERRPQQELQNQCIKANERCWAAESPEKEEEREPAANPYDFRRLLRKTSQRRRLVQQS
UniProt Q9HC98, sequence (whole entry, looked up): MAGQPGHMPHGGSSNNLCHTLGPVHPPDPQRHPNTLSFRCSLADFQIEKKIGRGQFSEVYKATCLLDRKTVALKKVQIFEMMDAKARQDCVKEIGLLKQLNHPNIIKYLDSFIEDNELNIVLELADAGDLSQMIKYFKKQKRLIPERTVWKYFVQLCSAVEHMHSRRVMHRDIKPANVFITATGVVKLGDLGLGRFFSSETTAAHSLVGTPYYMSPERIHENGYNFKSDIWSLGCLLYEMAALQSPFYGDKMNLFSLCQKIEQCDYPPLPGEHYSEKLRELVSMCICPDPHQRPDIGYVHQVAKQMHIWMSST

Series 1
Target: Beta-1 adrenergic receptor (ADRB1, Homo sapiens, UniProt P08588)
UniProt P08588, sequence (whole entry, looked up): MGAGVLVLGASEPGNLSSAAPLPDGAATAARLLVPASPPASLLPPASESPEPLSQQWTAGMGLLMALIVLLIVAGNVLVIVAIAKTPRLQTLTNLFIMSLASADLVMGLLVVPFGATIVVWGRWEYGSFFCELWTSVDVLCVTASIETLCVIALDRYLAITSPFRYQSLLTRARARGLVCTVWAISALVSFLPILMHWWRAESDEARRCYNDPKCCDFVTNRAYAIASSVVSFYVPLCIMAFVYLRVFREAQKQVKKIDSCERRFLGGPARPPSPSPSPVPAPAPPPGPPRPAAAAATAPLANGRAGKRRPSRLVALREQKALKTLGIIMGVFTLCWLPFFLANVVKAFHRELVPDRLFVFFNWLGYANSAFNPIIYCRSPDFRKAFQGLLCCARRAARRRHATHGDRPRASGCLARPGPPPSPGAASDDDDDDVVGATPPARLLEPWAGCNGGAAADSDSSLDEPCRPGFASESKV
Action: agonist
SMILES	EC50
COc1ccccc1N1CCN(CC[C@H]2CN(C(=O)N3CCOCC3)CC[C@H]2CC(=O)O)CC1	≥ 100 µM
COc1ccc(OC)c(-c2ncc3c(n2)OCCN(c2cccc(C(F)(F)F)c2)C3=O)c1	10 µM
Oc1ccccc1NCC(O)Cn1ccc2ccccc21 (stereo not drawn)	≥ 100 µM
Cc1ccc(F)c(Cn2cnc3c(cnn3C(C)(C)C)c2=O)c1Cl	≥ 100 µM
OC(COc1cccc(CN2CCC(c3ncon3)CC2)c1)CN1CCOCC1 (stereo not drawn)	≥ 100 µM
Cn1c(COc2ccc(Cl)cc2)nnc1SCc1cc(=O)oc2cc(O)ccc12	≥ 100 µM
COCCN1CCNc2nc(CNCC(C)(C)CO)n(Cc3ccccc3)c2C1=O	≥ 100 µM
CC(CNc1nc(C(C)C)nc2c1cnn2C)Oc1cccnc1 (stereo not drawn)	≥ 100 µM
Cn1cc(C(=O)N2CCn3nc(C(O)CO)cc3C2)c(=O)[nH]c1=O (stereo not drawn)	≥ 100 µM
CCOC(=O)N1CCN(Cc2cccc(OCC(O)CN3CCOCC3)c2)CC1 (stereo not drawn)	≥ 100 µM
CNc1nc(-c2ccccc2)c(-c2ccccc2)s1	≥ 100 µM
COc1ccc(CC(=O)Nc2ccc([C@@H](O)[C@H]3COCC(=O)N3Cc3ccccc3OC)cc2)cc1	≥ 100 µM
COc1ccccc1N1CCN(c2ncccc2CNC(C)Cn2ccnc2)CC1 (stereo not drawn)	≥ 100 µM
CC1(C)CC(=O)c2cc(C(=O)Nc3ccc(F)cc3)c(O)nc2C1	≥ 100 µM

Series 2
Host: mouse
Sample: microsomes or S9
Tested at: 2 µM
Time: 0.5 h
Compound	remaining compound [%]
Cc1cnc(C2=NC(C)(C(C)C)C(=O)N2)c(C(O)C(=O)N(C)c2ccc(Cl)c(Cl)c2)c1 (stereo not drawn)	6.13
CCOC(=O)Cc1cc(=O)c2c(=O)n(-c3ccccc3)[nH]c2[nH]1	85.7
Cc1cc2c(cc3c(NCc4ccccc4F)nnc(C)n32)s1	2.84
O=C(Nc1ccc(/C=C/C(=O)N2CCC[C@H]2C(=O)O)cc1)Nc1ccccc1Br	> 99
O=C(c1cc2ncccn2n1)N(c1ccccc1)c1ccccc1	0.0627
Cc1ccc(-c2csc3ncn(-n4cccc4)c(=O)c23)o1	2.83
CC1(C)Oc2ccncc2C(N(Cc2ncc[nH]2)c2ccc(Cl)cc2Cl)C1O (stereo not drawn)	12.9
COc1cc2c(cc1O)[C@@H]1Cc3ccc(O)c(OC)c3CN1CC2	86.5
CC1(C)Cc2c(sc3c2c(=O)n(C2CCCCC2)c(=O)n3CC(=O)NCc2ccccc2)CO1	37.6
Clc1ccccc1C1(c2ccnc(C3CCCC3)n2)CCNCC1	1.44
CCC(C)(C)Nc1[nH]c2c(Cl)cc(C)cc2c(=O)c1C(C)=O	0.659
COc1nccnc1Oc1cc(F)c(CN2CCCC2)c(Cl)c1	0.82
Cc1nc(Oc2ccc3c(c2)OCO3)c2c3c(sc2n1)CCC3	0.0158

Series 3
SMILES: CO[C@H]1CC[C@H](CNc2ccc(S(=O)(=O)NC(=O)c3ccc(N4CCN(CC5=C(c6ccc(Cl)cc6)CC(C)(C)CC5)CC4)cc3Oc3cnc4[nH]ccc4c3)cc2[N+](=O)[O-])CC1
Tested at: 1 µM
target	effect on	method	remaining binding [%]
NEK6 (Homo sapiens, UniProt Q9HC98)	cell-free assay	competition with immobilised ligand	89
SIK1 (Homo sapiens, UniProt P57059)	–	competition binding	90
IRAK3 (Homo sapiens, UniProt Q9Y616)	cell-free assay	competition with immobilised ligand	100
ACVR2A (Homo sapiens, UniProt P27037)	cell-free assay	competition with immobilised ligand	91
Myosin-IIIb (MYO3B, Homo sapiens, UniProt Q8WXR4)	binding	competition with immobilised ligand	69
FLT3 (Homo sapiens, UniProt P36888, D835Y)	cell-free assay	competition with immobilised ligand	100
Myosin-IIIa (MYO3A, Homo sapiens, UniProt Q8NEV4)	binding	competition with immobilised ligand	82
TNNI3K (Homo sapiens, UniProt Q59H18)	cell-free assay	competition with immobilised ligand	85
VRK2 (Homo sapiens, UniProt Q86Y07)	cell-free assay	competition with immobilised ligand	71
FLT3 (Homo sapiens, UniProt P36888, ITD)	cell-free assay	competition with immobilised ligand	86

Series 4
Structure (SMILES): COc1cc(C(=O)N2CCC(N3CCN(C)CC3)CC2)ccc1Nc1ncc2c(n1)N(C)c1ccccc1C(=O)N2C
tested on	assay	system	conditions	inhibition [%]
RSK2 kinase domain 2 (human)	probe labelling, KiNativ, measured: Lys1 site peptide	PBMC lysate (human)	1 µM, added: ADP acyl-phosphate probe	25.4
NIM1 (mouse)	probe labelling, KiNativ ATP probe	mouse brain lysate	0.1 µM, LYS1 labelled site	9.9
OSR1 (mouse)	probe labelling, KiNativ ATP probe	mouse brain lysate	0.1 µM, LYS2 labelled site	-38.2
mouse PFTAIRE1	probe labelling, KiNativ ADP probe	mouse brain lysate	0.1 µM, LYS1 site LVALkVIR	-7.8
p38alpha human	KiNativ profiling	human PBMC lysate	concentration not given, ATP probe, other site	-8
MAP2K1 and MAP2K2 (mouse)	probe labelling, KiNativ, measured: DVkPSNILVNSR peptide, LYS2 site	brain tissue lysate (mouse)	1 µM, added: ADP acyl-phosphate probe	5.6
Lyn (Mus musculus, UniProt P25911)	KiNativ profiling	mouse brain lysate	0.1 µM, LYS1 site, added: ATP acyl phosphate probe	-10.4
mouse IKKε and TBK1	probe labelling, KiNativ ATP probe	mouse brain lysate	0.1 µM, LYS2 site DIkPGNIMR	-7.2
DCLK1	KiNativ ADP probe	mouse brain lysate	0.1 µM, LYS1 site	13.1
mouse JNK1/JNK2/JNK3	probe labelling, KiNativ ATP probe	mouse brain lysate	1 µM, LYS2 site DLkPSNIVVK	-9.4
MAP2K6 (mouse)	probe labelling, KiNativ ATP probe	mouse brain lysate	1 µM, LYS2 labelled site	-1.6
NDR2 (mouse)	probe labelling, KiNativ ATP probe	mouse brain lysate	1 µM, LYS1 labelled site	8.2
FER (mouse)	probe labelling, KiNativ ADP probe	mouse brain lysate	0.1 µM, LYS1 labelled site	-6.6
human PBMC	probe labeling, inhibitor, KiNativ profiling	cell lysate	concentration not given, domain 1, LYS2 site, added: ATP acyl-phosphate probe 1 µM	-33.3

A few entries again (series 1):
SMILES	EC50
CC1(C)CC(=O)c2cc(C(=O)Nc3ccc(F)cc3)c(O)nc2C1	≥ 100 µM
COc1ccc(OC)c(-c2ncc3c(n2)OCCN(c2cccc(C(F)(F)F)c2)C3=O)c1	10 µM
COc1ccccc1N1CCN(c2ncccc2CNC(C)Cn2ccnc2)CC1 (stereo not drawn)	≥ 100 µM
COc1ccc(CC(=O)Nc2ccc([C@@H](O)[C@H]3COCC(=O)N3Cc3ccccc3OC)cc2)cc1	≥ 100 µM
OC(COc1cccc(CN2CCC(c3ncon3)CC2)c1)CN1CCOCC1 (stereo not drawn)	≥ 100 µM
